Published values of several laboratories.
Parts stem from different laboratories: compare values within a part only.

Sample 1 — method: protein binding microarray; form: double-stranded DNA, one strand shown; sample: in vitro; concentration: not given; relative to: not given; direction: higher = stronger binding
Target: Histone acetyltransferase KAT6A, both winged helices, GST fusion (KAT6A, Homo sapiens, UniProt Q92794, residues 1-181)
Setting: 8-mer, flanks averaged, mean of 2 arrays, mostly near background
Target sequence (chain): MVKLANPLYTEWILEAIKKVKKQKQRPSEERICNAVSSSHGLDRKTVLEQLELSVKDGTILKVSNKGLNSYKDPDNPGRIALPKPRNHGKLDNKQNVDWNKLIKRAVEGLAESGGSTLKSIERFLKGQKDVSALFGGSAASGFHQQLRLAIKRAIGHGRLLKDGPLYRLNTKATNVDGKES
| Strand | E-score |
| --- | --- |
| AGGATCAA | -0.084 |
| AGATGCAG | -0.215 |
| GAAGAGAC | 0.0308 |
| ACTGAGAC | -0.0633 |
| ACGCCATA | 0.0554 |
| CCGACTTA | -0.0831 |

Sample 2 — method: competition protein-binding microarray; form: double-stranded DNA, one strand shown; sample: in vitro; concentration: 2 µM; with: Cbf1 competitor, 0.05 µM; direction: higher = stronger binding
Target: Phosphate system positive regulatory protein PHO4, full length, GST-tagged (PHO4, Saccharomyces cerevisiae, UniProt P07270, residues 1-312)
Setting: whole 60-bp probe, lowest competitor level
Construct (chain): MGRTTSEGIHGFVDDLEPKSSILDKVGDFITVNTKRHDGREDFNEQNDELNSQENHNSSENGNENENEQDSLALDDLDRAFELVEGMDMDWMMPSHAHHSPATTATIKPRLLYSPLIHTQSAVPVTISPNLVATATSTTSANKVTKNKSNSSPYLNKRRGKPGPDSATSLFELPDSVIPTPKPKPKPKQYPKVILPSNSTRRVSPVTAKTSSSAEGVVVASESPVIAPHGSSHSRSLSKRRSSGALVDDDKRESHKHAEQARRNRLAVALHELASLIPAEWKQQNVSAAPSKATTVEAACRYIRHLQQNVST
| Strand | fluorescence intensity |
| --- | --- |
| CTGCATAGGTGGTTACACGGGGATGGTTTTTCTCTTGTCTTGATTCGCTTGACGCTGCTG | 7950 a.u. |
| CTTTCCCGATCTTGTATGGTGGGTGTAGCACATTTGGTCTTGATTCGCTTGACGCTGCTG | 4790 a.u. |
| AAAGCGGTAATTTGCCTAGTGGGTGCAGATATCTATGTCTTGATTCGCTTGACGCTGCTG | 5070 a.u. |
| TGTATTGATTTTTAGAACGTGAAAAGGATAAACTGAGTCTTGATTCGCTTGACGCTGCTG | 8210 a.u. |

Sample 3 — method: universal PBM; form: double-stranded DNA, one strand shown; sample: in vitro; concentration: 600 nM; direction: higher = stronger binding
Target: Sal-like protein 4, full length isoform A (SALL4, Homo sapiens, UniProt Q9UJQ4, residues 1-1053)
Sequence of UniProt Q9UJQ4 (whole entry, looked up): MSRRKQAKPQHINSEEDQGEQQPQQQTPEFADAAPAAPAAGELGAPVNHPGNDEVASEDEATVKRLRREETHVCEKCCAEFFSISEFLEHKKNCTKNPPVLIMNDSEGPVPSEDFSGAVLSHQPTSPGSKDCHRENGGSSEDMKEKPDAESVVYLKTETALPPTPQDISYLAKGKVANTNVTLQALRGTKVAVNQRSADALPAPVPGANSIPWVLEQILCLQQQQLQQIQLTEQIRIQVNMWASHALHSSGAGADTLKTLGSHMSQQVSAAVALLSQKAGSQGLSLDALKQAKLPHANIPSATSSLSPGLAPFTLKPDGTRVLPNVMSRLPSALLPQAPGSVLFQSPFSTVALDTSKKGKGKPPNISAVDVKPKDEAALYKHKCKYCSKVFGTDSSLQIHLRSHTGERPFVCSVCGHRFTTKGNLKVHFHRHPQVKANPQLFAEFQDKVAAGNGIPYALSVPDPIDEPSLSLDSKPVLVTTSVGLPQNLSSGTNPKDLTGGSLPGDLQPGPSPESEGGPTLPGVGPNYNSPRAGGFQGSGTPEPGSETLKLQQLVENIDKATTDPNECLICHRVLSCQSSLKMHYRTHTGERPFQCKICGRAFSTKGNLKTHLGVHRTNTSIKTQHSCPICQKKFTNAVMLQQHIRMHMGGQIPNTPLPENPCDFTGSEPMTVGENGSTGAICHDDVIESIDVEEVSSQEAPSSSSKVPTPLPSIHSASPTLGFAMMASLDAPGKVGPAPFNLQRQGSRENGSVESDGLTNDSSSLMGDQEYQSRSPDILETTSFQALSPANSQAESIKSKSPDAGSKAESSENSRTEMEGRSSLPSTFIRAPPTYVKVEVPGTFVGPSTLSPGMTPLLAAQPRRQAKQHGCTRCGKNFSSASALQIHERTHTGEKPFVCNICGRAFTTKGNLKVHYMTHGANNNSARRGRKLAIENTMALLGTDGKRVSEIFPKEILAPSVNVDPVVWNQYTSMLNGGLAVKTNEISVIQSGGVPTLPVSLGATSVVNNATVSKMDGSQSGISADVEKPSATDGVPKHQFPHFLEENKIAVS
Setting: 8-mer, flanks averaged, mean of replicates
| Strand | E-score |
| --- | --- |
| ACTGAGTC | -0.0451 |
| AGAATGAA | 0.26 |
| CAGTAGGC | -0.132 |
| AGTAACGG | 0.0922 |
| CCGCTTAG | -0.35 |
| AACTGGCT | -0.0756 |

Single results of other studies
| Molecule | target | assay | system | conditions | scale | measurement | result |
| --- | --- | --- | --- | --- | --- | --- | --- |
| PhoQ, residues 284 288 289 292 302 303 SLSVQF | PhoP, residues 12 14 15 18 19 NFCKL (Escherichia coli, UniProt P23836) | Sort-seq, measured: YFP reporter | E. coli | PhoQ-PhoP variant library, with: 10 µM Mg2+ | relative to: high Mg2+ state, higher = stronger signaling | fold induction | 10.3 |

A few entries again (single results of other studies):
| Molecule | target | assay | system | conditions | scale | measurement | result |
| --- | --- | --- | --- | --- | --- | --- | --- |
| PhoQ, residues 284 288 289 292 302 303 SLSVQF | PhoP, residues 12 14 15 18 19 NFCKL (Escherichia coli, UniProt P23836) | Sort-seq, measured: YFP reporter | E. coli | PhoQ-PhoP variant library, with: 10 µM Mg2+ | relative to: high Mg2+ state, higher = stronger signaling | fold induction | 10.3 |
